Experimental data gathered from unrelated publications.
Every numbered part comes from another study and shows a few of its results, in no order.

Block 1
Target: Ras GTPase-activating protein-binding protein 1, C-terminal RGG region (G3BP1, Homo sapiens, UniProt Q13283)
UniProt Q13283, sequence (whole entry, looked up): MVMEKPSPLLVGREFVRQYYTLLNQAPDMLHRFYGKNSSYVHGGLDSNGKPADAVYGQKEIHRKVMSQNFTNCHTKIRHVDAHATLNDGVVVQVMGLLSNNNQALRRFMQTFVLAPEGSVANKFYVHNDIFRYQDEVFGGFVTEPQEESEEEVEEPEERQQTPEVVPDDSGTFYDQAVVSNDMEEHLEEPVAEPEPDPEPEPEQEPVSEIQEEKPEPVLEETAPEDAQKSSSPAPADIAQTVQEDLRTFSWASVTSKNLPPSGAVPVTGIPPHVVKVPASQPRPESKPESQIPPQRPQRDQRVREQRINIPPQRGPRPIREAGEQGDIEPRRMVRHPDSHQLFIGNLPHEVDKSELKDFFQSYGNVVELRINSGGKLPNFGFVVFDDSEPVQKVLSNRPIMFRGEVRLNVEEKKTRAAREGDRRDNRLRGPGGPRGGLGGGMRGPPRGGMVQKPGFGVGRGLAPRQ
Method: RNA Bind-n-Seq
Molecule type: RNA
Medium: in vitro
Concentration: 1 µM
Setting: whole 134-nt RNA, ends assumed
Together with: 150 mM KCl
Reference: input library
Reading: higher = stronger binding
Oligonucleotide	log2 enrichment
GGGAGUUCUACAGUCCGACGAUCCUGUGCUACACAUCGUAUGUACCGAAUCGGCCCCCCCGGGGCCCCCCCGGGGCCCCCCCGGAAAGUAUUAUGUUACGCCGUUCGGAUCUGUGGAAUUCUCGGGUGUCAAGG	-1.76
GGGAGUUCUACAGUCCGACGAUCCACAGACAACACGCACCCACACAGACACAGAGGGAAGGGGUUGGGAUAAAGACAGGGUGCACAGCAGGGCGGGGUAGGACCCCAGCCCCUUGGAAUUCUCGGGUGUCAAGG	0.136
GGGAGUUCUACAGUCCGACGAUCACCAUGCAGGUGGGCAUCUUUGGGUAGUGGGGCAAGGGGGGGAUAGGGAGGGGGGUAACACUUUGGGAACAGGUGGUCCCAGGUCGUUUCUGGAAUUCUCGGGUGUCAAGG	-1.49
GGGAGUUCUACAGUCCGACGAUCUGGGAGGUGGAUUUUGUUUAUUUUUUUAGCUCAUUUCCAGGGGUGGGAAUUUUUUUUUAAUAUGUGUCAUGAAUAAAGUGGUUUUUGAAAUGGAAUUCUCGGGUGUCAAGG	3.12
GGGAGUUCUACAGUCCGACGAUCAGUCCUGUGCUACACAUCGUAUGUACCGAAUCGGGGAAAGGGGUUUGGGGUUUGGGGAAAGUAUUAUGUUACGCCGUUCGGAUCUGCACUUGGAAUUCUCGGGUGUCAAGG	3.58
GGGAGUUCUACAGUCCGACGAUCUCCUGUGCUACACAUCGUAUGUACCGAAUCGGGGAAAAAAAGGGGAAAAAGGGGUGGGGAAAGUAUUAUGUUACGCCGUUCGGAUCUGCAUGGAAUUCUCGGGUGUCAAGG	1.82
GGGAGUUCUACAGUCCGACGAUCUCCUGUGCUACACAUCGUAUGUACCGAAUCGGGUUUUUUUGGGUUUUUUUGGGAAAGGGAAAGUAUUAUGUUACGCCGUUCGGAUCUGCAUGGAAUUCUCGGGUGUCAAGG	-0.471
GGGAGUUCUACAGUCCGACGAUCUCCUGUGCUACACAUCGUAUGUACCGAAUCGGGUUUUUUUGGGUUUGGGUUUUUUUGGGAAAGUAUUAUGUUACGCCGUUCGGAUCUGCAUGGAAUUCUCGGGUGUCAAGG	-0.366
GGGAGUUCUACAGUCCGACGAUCAAGUCCUGUGCUACACAUCGUAUGUACCGAAUCGGUUUUGGUUUUGGGUUUUGGGGAAAGUAUUAUGUUACGCCGUUCGGAUCUGCACUUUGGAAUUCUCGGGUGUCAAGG	-1.3
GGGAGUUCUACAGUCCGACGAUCCCUCAAGUCCUGUGCUACACAUCGUAUGUACCGAAUCGGAGGGGAGGAGGGGAAAGUAUUAUGUUACGCCGUUCGGAUCUGCACUUCCAGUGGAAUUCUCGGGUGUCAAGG	-0.56

Block 2
Target: RNA binding protein fox-1 homolog 2, RRM domain, GST-SBP tag (RBFOX2, Homo sapiens, UniProt O43251-10, residues 100-194)
Method: RNA Bind-n-Seq
Molecule type: RNA
Medium: in vitro
Concentration: 365 nM
Setting: natural RNA segment, single round, ends assumed
Reference: no-protein control
Reading: higher = stronger binding
Target sequence (chain): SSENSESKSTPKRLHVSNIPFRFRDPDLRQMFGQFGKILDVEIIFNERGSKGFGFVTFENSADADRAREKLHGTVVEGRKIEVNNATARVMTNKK
Oligonucleotide	RBNS enrichment (R)
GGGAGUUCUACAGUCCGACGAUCGGACACGGGUGCCAGCCAAAAAGUUGGAGUGAAAGACCCUGGCACCCGCCCGACACCUGCGUGAGCCCUAGGAUCCAGGUCCUCUCUCACCUCUGACCCAGCUCCAUGCCUGGAAUUCUCGGGUGCCAA	0.327
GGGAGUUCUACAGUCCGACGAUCCUCUUGAGCAAUGGAGUCACGUGUCUGCCCUGUGUAUUGCAGUUUGUCUUGACACAAGCUGUUUUUACACCAGUGUCAUCCCUUUCUUGUAGAAUAUACUAAUAAUCUGUUGGAAUUCUCGGGUGCCAA	0.85
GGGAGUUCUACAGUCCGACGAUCGUAAUAGCAAGAGUGAAGGUACUUUGGAACCACUAACACCUCUGCACAGGGCAGUUAGCCAGCUCAAGUUCUUUUUCAGAGAAAGGGACUUGGCCAGUGGUUUAAGUACCUGGAAUUCUCGGGUGCCAA	0.353
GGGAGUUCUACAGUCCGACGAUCAUCCCAGGCUUGCCCCCGAGCCCUCCUGUCCUUCUGGGUUUGUGUUUGCCUUGCCUGGUGCUUCCUCCCUCAUUGUGUUGUUGAAUAGACCUAGGCAGCCUUGUAUCCAUUGGAAUUCUCGGGUGCCAA	0.739
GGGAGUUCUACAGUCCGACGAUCCAUUGUUUUCAAAUAAACAGUGUUUUCCAUGACUGAGAUAUUUAUUUUUGGGAAAGCAACGAGGUAAAAAUUAUGUUUCUCAGAUGCACUGCUACUUUGGCGUUAUUACUUGGAAUUCUCGGGUGCCAA	0.699
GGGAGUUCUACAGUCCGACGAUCUACCGAGUACACAGAGUACCCAAGUGAAGAGAACGUCAUGAGUGUAAGUGCAAAUCAGUGGAAGGAGCGGCAAACUGGGACAUGCAGAAUUGAAUUUGCUCAAAAAAGAUUGGAAUUCUCGGGUGCCAA	0.599
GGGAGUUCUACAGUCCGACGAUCUGUCUCACAGCCCUGGGGACACCUGCCCAGUGGGCCCCAGCCCUACAGGGACUGGGCAAAGAUGAUGUUUCCAGAUUACACUCCAGCCUGAGUCAGCACCCCUCCUAGCAUGGAAUUCUCGGGUGCCAA	1.7
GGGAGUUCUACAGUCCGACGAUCAGCAUCCAGACUAGCUGUGAUUACAGGUGUGCACCACCACACCCAGCUACAUUUUUUUUUGGUAGAGACAGGGUCUCACUAUGUUACCCAGUCUGGUCUCAAACUCCCGGUGGAAUUCUCGGGUGCCAA	0.406
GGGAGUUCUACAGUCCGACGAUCAGCAGCAGUUCUAUCAGUGGUGCCACUGAAACUGGGUAUAUUUAUGAUUUCUUUCAGCGUUAAAAAGAAACAUAGUGUUGCCCUUUUUCUUAAAGCAUCAGUGAAAUUAUUGGAAUUCUCGGGUGCCAA	0.542

Block 3
Target: RING finger protein unkempt homolog, zinc fingers 1-6, GST-SBP tag (UNK, Homo sapiens, UniProt Q9C0B0, residues 30-357)
UniProt Q9C0B0, sequence (30-357, looked up): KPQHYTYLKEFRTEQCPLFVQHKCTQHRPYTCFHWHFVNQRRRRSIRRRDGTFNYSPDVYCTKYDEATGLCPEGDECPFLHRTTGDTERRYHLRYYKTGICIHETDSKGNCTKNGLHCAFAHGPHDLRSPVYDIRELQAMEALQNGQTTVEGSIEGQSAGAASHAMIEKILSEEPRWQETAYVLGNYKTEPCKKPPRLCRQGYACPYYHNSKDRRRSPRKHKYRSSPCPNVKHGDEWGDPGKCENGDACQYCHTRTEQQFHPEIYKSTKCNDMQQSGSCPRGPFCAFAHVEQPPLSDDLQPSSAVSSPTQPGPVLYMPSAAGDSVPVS
Method: RNA Bind-n-Seq
Molecule type: RNA
Medium: in vitro
Concentration: not given
Setting: RNA with constant flanks, human and mouse sites, ends assumed
Reference: input RNA pool
Reading: higher = stronger binding
Oligonucleotide	bound/input enrichment [ratio]
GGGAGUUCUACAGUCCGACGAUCUGGUGGGGACUGAGUUCCCUGUUCAAACCGUUAUUGGGUACAGGAUUGAAUGUUUGAUUUUAGGUUUUAUUUUUCUUAUGAAUGUCCAGAUCUGUGUUUCCCUGCCCUCCCAGACUCUGGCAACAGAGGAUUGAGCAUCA	27.8
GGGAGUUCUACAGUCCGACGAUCAGAGCGUUUGUUAUAAGACGUAACGUAACCUACUGUUCAUGUUUGCUCUGGUCUGAAGUGUUUAGCUGUUGAGCUGGAUUCCUUAGGAGACCAAAUUAAGAUGGCUUAAAUUACAUCUUACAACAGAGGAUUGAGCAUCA	0.572
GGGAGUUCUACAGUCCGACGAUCUAUCACAAUGUAUACUCUCGAGAUCCUAAUUAUCUGAAUUUGUUCAUUAUCGUAAUGGAGAAUAGAAAUCUCCACAGUCCUGAAUAUCUGGAAAUGGCUUUGCCAUUAUUUUGCAAAGCGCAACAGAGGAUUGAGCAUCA	0.239
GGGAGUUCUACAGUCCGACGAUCUCUCCACAAUCAAUAGGUUUCCAAGCAACAAUCAGUGCUCCACACAUGCAUGCAUAUGCGCUAGAACUUCUAUUUGAUCAGUUGCAUGAAGGAGCUAAAGCUCUUGAUGUAGGAUCUGGACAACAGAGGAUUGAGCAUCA	0.683
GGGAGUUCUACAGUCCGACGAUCGAUGGCAAUGGCCAGGAGGCCUAUGCCUCGAGCUGCAACAGCGGCACCUCUUACAAUUCCAUUAGCUCUGUUGUAUCCCGGUGAGGGCAGCCUCUGGCUUGGGCAGGGUCUGUUUGGACUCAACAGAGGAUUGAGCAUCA	0.164
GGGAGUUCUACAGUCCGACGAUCAGUGCUAAAGAUGAUUCUCCUAAGGAGUACACUGACCUAGAAGUAUCCAACAAAAGUGAAAUUGCUAAUGUCCAGAGCGGGGCCAAUUCGUUGCCUUGCUCAGAAUUGCCCUGUGACCUUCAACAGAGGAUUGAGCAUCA	0.22
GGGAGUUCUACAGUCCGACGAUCAGGGGCUCCAGACACCAGGGUACGGGGUGGGGACUGAUUAUAUUGCCAAAGGGUUCAACUUCUUUAACAAGCCCCCCCGUUUCCCCUGACCUUCACGAAAGCCGAAGGAGGCGGGGAAAGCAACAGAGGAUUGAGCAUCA	0.148
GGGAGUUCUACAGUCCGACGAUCCCUCCACUUCCCAGGGAAGAUAAGAGGAAAGUAACAGUUUCAUUACACACACUCACAUGUGUGAGCACAUACAAAUGUGCACACACACACACACAACUGUUAGGAAUAUGUAAACAUAAUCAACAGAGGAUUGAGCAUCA	0.608

Block 4
Target: Interferon regulatory factor 3, full length, phosphomimetic (IRF3, Homo sapiens, UniProt Q14653, residues 1-427, S386D/S396D/S398D/S402D/T404D/S405D)
UniProt Q14653, sequence (whole entry, unmodified, looked up): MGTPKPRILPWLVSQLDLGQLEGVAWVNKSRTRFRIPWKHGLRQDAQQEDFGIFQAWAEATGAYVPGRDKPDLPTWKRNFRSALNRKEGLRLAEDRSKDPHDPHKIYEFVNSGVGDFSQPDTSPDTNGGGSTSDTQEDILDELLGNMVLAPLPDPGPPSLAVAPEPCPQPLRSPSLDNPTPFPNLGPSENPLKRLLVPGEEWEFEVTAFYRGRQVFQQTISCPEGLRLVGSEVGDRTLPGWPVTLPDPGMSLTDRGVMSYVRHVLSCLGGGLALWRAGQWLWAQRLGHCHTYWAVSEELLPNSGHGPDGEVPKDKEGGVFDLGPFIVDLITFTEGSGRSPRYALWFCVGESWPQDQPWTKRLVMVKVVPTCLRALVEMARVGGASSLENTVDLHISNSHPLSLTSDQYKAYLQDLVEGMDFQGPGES
Method: protein-binding microarray
Molecule type: double-stranded DNA, one strand shown
Medium: in vitro
Concentration: 2540 nM top
Setting: 60-bp whole probe
Together with: salmon DNA 0.4 mg/ml
Reference: random background probes
Reading: higher = stronger binding
All sequences stand within: GCCTAGCAC … GTCTTGATTCGCTTGACGCTGCTG
Oligonucleotide	fitted relative affinity [z-score]
GACGATTTCTGTCTCGAGACGTGCTAG	2.22
TTAGGTATCGGGTCTGGGTTAGTGCTA	1.98
CTTTTTCCCTATTATATATATGTGCTA	6.29
TCAAAGATCATTCTCACACTGTGCTAG	0.936
TTTATTTTTTTTATTTATAAGTGCTAG	1.72
GACGCACTGGGGACTGGAGACGTGCTA	-0.744
TCAGATATCAGTATCGATTAGTGCTAG	2.29
TCAACTCTGTCCCTCTGACTGTGCTAG	0.0123
CTTGCTTTGTGCCTAGCCTTGTGCTAG	-0.383
GACGGACTGGGGATTGGGGACGTGCTA	-0.64
TCAAAAATCAAGTCTGGGACTGTGCTA	-0.691
GTCGGTCTCGGTTTCGGGACGTGCTAG	4.63
TTAGGTTTCGTACTGCTTTAGTGCTAG	3.72
TTCATTTTTTTTTTCATCATGTGCTAG	1.23
TTAGGACTGCTACTGCATTAGTGCTAG	-0.513
TCATTTCTCCTTTCGGAACTGTGCTAG	4.6
ACGCATGTGGGTTCCATCATGTGCTAG	-0.287
TTAGTACTGCTACTGCTTTAGTGCTAG	-0.274
TTAGATCTAAGACTGGATTAGTGCTAG	-0.343
TTAGGCATCGGGTATCGGTTAGTGCTA	-0.0269
TCATTTTTGCTTACGATGCAGTGCTAG	1.51
TTAGATCACAGTCTCGATTAGTGCTAG	0.668

Excerpt of the above (block 2):
Oligonucleotide	RBNS enrichment (R)
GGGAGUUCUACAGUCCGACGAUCCUCUUGAGCAAUGGAGUCACGUGUCUGCCCUGUGUAUUGCAGUUUGUCUUGACACAAGCUGUUUUUACACCAGUGUCAUCCCUUUCUUGUAGAAUAUACUAAUAAUCUGUUGGAAUUCUCGGGUGCCAA	0.85
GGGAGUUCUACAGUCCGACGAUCGUAAUAGCAAGAGUGAAGGUACUUUGGAACCACUAACACCUCUGCACAGGGCAGUUAGCCAGCUCAAGUUCUUUUUCAGAGAAAGGGACUUGGCCAGUGGUUUAAGUACCUGGAAUUCUCGGGUGCCAA	0.353
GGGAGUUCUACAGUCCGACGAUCAUCCCAGGCUUGCCCCCGAGCCCUCCUGUCCUUCUGGGUUUGUGUUUGCCUUGCCUGGUGCUUCCUCCCUCAUUGUGUUGUUGAAUAGACCUAGGCAGCCUUGUAUCCAUUGGAAUUCUCGGGUGCCAA	0.739
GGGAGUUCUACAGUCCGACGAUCCAUUGUUUUCAAAUAAACAGUGUUUUCCAUGACUGAGAUAUUUAUUUUUGGGAAAGCAACGAGGUAAAAAUUAUGUUUCUCAGAUGCACUGCUACUUUGGCGUUAUUACUUGGAAUUCUCGGGUGCCAA	0.699
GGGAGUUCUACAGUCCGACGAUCUACCGAGUACACAGAGUACCCAAGUGAAGAGAACGUCAUGAGUGUAAGUGCAAAUCAGUGGAAGGAGCGGCAAACUGGGACAUGCAGAAUUGAAUUUGCUCAAAAAAGAUUGGAAUUCUCGGGUGCCAA	0.599
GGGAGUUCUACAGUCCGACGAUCUGUCUCACAGCCCUGGGGACACCUGCCCAGUGGGCCCCAGCCCUACAGGGACUGGGCAAAGAUGAUGUUUCCAGAUUACACUCCAGCCUGAGUCAGCACCCCUCCUAGCAUGGAAUUCUCGGGUGCCAA	1.7
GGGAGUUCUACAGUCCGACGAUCAGCAUCCAGACUAGCUGUGAUUACAGGUGUGCACCACCACACCCAGCUACAUUUUUUUUUGGUAGAGACAGGGUCUCACUAUGUUACCCAGUCUGGUCUCAAACUCCCGGUGGAAUUCUCGGGUGCCAA	0.406
